Published values from different studies.
Compare with care: the assays were run in different laboratories. Numbers after ± are the reported error.
Target: Calcium/calmodulin-dependent protein kinase type 1 (CAMK1, Homo sapiens, UniProt Q14012)
Chain of UniProt Q14012 (whole entry, looked up): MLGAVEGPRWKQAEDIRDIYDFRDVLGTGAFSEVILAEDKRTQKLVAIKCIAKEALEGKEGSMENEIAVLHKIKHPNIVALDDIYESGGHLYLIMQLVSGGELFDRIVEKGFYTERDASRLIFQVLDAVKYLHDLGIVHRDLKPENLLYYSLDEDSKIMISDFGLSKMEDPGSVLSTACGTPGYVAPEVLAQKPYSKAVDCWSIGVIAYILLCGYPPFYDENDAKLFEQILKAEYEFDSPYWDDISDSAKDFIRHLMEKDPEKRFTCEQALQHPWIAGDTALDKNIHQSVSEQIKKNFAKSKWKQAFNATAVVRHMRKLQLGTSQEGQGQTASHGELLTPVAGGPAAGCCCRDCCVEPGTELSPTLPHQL

Compound	assay	system	conditions	scale	endpoint	value
C=CC(=O)N1CCC[C@@H](n2nc(-c3ccc(Oc4ccccc4)cc3)c3c(N)ncnc32)C1			0.1 µM		remaining activity	85.9%
C=CC(=O)N1CCC[C@@H](n2nc(-c3ccc(Oc4ccccc4)cc3)c3c(N)ncnc32)C1	kinase activity, inhibitor, HotSpot radiometric		100 nM, with: ATP 10 µM		remaining activity	78.4 ± 0.9%
C=CC(=O)N1CCC(COCC(=O)N2CCN(c3nc(-c4cnc(N)nc4C(F)F)nc(N4CCOC[C@@H]4C)n3)CC2)CC1	KINOMEscan		1 µM		remaining binding	100%
COc1cc(F)ccc1-c1ncnc(Nc2cccc(C[S@](C)(=N)=O)c2)n1	kinase activity		10 µM, with: 10 µM ATP		remaining activity	101%
CC[C@@H]1[C@H](F)C(=O)N[C@@H]1COc1nccc2cc(C(N)=O)c(OC)cc12	ATP probe binding, KiNativ profiling, item: Lys1 probe site	THP-1 cell lysate	0.04 mM		inhibition	9.8%
COc1ccc(F)cc1C(=O)NCc1ccc(-c2nn([C@@H](C)C(F)(F)F)c(N)c2C(N)=O)cc1			1000 nM, with: ATP at Km		remaining activity	96.4 ± 3.5%
O=C1NC(=O)/C(=C/c2ccc(-c3ccc(F)cc3O)o2)S1	enzyme activity		10 µM		remaining activity	46%
C=CC(=O)N1CCC([C@@H]2CCNc3c(C(N)=O)c(-c4ccc(Oc5ccccc5)cc4)nn32)CC1	kinase activity, inhibitor, HotSpot radiometric		100 nM, with: ATP 10 µM		remaining activity	97.4 ± 0.2%
Cc1cc(Nc2cc(N3CCN(C)CC3)nc(Sc3ccc(NC(=O)C4CC4)cc3)n2)[nH]n1	kinase activity, KinaseProfiler		0.03 µM, species human	baseline: control	remaining activity	104%
